Assay results of several laboratories.
Each line is one published result; not all experiments were run side by side. ± marks the error that the study gave.
C5a: C5a (Homo sapiens, UniProt P01031)
Sequence of UniProt P01031 (whole entry, looked up): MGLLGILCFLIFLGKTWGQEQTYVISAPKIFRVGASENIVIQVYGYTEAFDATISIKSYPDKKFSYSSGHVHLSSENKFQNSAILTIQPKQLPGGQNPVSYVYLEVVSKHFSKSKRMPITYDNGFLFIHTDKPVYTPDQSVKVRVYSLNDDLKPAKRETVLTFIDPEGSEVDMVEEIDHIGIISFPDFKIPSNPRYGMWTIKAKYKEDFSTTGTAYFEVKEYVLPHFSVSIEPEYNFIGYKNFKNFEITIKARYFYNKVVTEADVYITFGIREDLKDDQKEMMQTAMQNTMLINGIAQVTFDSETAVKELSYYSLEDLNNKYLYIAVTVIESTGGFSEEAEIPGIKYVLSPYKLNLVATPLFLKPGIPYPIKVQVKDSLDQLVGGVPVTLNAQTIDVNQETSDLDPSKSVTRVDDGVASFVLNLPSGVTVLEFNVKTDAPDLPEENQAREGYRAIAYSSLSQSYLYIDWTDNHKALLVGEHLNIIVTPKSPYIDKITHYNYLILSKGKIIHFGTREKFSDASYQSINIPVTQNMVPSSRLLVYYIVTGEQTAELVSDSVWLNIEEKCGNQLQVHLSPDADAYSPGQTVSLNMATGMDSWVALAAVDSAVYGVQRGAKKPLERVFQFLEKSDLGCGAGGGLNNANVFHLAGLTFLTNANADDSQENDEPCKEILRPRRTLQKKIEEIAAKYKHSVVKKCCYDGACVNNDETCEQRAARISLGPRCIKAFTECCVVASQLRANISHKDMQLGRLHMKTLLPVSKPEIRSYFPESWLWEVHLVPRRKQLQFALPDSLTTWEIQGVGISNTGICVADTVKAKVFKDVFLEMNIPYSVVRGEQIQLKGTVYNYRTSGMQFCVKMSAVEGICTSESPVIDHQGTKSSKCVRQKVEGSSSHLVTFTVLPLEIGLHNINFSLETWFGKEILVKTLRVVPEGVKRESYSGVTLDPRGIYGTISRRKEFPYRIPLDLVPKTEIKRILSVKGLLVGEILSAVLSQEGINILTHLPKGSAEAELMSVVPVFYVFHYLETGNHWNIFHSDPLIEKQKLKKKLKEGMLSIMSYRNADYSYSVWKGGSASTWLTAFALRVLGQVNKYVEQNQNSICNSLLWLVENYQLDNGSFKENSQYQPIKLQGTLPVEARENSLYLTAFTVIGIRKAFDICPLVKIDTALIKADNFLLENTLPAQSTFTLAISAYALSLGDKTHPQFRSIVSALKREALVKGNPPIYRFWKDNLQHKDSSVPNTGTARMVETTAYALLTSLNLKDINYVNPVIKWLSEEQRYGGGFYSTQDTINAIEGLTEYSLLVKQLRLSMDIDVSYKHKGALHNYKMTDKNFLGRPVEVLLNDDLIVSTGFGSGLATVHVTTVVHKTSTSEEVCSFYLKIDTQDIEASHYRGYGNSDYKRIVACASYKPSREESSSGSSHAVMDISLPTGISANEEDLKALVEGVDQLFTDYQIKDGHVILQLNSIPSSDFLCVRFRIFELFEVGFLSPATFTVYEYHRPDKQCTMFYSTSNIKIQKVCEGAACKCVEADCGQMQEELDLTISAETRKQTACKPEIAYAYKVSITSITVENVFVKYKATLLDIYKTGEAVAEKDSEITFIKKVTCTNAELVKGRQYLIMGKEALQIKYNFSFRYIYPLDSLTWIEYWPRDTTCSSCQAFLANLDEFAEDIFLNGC
B1: UGT1A9 (Homo sapiens, UniProt O60656); chain GKLLVVPMDGSHWFTMRSVVEKLILRGHEVVVVMPEVSWQLGRSLNCTVKTYSTSYTLEDLDREFKAFAHAQWKAQVRSIYSLLMGSYNDIFDLFFSNCRSLFKDKKLVEYLKESSFDAVFLDPFDNCGLIVAKYFSLPSVVFARGILCHYLEEGAQCPAPLSYVPRILLGFSDAMTFKERVRNHIMHLEEHLLCHRFFKNALEIASEILQTPVTEYDLYSHTSIWLLRTDFVLDYPKPVMPNMIFIGGINCHQGKPLPMEFEAYINASGEHGIVVFSLGSMVSEIPEKKAMAIADALGKIPQTVLWRYTGTRPSNLANNTILVKWLPQNDLLGHPMTRAFITHAGSHGVYESICNGVPMVMMPLFGDQMDNAKRMETKGAGVTLNVLEMTSEDLENALKAVINDKSYKENIMRLSSLHKDRPVEPLDLAVFWVEFVMRHKGAPHLRPAAHDLTWYQYHSLDVIGFLLAVVLTVAFITFKCCAYGYRKCLGKKGRVKKAHKSKTH
Sequence of UniProt P09874 (whole entry, looked up): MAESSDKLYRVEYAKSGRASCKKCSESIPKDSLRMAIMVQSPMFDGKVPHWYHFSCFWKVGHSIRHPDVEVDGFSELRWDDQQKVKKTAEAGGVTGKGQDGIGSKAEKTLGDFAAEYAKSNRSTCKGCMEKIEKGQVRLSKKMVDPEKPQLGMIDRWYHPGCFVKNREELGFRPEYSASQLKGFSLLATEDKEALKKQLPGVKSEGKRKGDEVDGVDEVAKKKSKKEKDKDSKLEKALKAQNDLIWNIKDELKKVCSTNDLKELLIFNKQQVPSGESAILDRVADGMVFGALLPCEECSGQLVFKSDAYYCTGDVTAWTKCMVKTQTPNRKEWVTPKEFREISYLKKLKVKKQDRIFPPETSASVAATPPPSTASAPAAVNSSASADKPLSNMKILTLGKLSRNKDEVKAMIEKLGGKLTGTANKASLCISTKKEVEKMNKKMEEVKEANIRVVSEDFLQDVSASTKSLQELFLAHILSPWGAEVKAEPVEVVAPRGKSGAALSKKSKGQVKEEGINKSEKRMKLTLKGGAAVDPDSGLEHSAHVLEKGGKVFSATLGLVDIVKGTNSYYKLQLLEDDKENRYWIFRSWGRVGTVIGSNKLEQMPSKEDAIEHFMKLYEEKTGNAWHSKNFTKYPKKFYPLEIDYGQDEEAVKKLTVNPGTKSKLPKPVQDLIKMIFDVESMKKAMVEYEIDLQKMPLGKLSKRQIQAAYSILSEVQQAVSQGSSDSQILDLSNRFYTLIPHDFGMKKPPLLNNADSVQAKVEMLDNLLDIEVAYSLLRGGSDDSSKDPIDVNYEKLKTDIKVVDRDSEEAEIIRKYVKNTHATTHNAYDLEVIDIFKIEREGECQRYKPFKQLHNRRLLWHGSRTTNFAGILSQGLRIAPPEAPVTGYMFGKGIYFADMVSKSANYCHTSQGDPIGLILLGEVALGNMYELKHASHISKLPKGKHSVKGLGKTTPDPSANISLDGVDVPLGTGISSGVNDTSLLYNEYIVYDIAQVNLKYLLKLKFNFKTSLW
Sequence of UniProt O66659 (whole entry, looked up): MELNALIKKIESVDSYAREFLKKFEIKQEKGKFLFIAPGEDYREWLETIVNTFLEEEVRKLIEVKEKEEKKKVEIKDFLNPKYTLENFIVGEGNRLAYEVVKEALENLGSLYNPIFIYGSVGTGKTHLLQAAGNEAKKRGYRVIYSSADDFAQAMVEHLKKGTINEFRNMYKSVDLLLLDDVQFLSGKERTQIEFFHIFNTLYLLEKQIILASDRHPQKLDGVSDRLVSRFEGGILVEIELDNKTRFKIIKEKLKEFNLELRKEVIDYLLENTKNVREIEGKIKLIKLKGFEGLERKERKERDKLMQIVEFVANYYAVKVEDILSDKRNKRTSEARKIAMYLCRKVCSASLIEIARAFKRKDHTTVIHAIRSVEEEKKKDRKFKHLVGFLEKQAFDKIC
Sequence of UniProt Q13325 (whole entry, looked up): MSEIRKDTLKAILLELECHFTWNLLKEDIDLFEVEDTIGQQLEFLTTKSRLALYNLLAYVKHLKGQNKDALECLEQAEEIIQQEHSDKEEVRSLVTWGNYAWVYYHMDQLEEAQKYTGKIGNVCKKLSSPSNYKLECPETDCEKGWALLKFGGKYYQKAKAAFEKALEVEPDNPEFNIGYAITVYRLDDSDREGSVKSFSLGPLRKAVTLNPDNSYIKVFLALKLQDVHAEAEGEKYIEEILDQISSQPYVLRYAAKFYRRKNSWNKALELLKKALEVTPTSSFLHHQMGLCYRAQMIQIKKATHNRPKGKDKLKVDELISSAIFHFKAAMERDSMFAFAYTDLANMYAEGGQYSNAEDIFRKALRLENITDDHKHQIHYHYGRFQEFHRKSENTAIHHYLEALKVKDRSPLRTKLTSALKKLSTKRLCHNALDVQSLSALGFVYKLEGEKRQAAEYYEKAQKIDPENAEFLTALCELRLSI

Molecule | target or system | assay | test system | conditions | measurement | value
GAGGCCCTTTCGTCTTCAAGAATTCTATTTGACAAAAATGGGCTCGTGTTGTACAATAAATGTGTCTAAGCTTGGGTCCCACCTGAC (dsDNA (Bacillus subtilis); blunt) | RNA polymerase holoenzyme sigma70 (Escherichia coli) | EMSA | double-stranded DNA, one strand shown |  | Kd | 30.6 ± 3 nM
TGGCGACGGCAGCGAGGCTTTTTTTTTTTTTTTTTTTTTTTTTTTTTTTTTTTTTTTTTTTTTTTTTTTTTT / GCCTCGCTGCCGTCGCCA (DNA duplex; 18 bp, 3' overhang, C6-amino-dT) | dnaA 77-399 (Aquifex aeolicus, UniProt O66659) | EMSA |  | with: ADP-BeF3 | Kd | 2000 nM
GCGGACGGACAGAGAGUGCAACCUGCCGUGCCGC (ssRNA; 2'-F pyrimidines, 5' thiol-C6) | ITGA5/ITGB1 on cells (Homo sapiens) | flow cytometry | T24 | MgCl2 1 mM, CaCl2 0.5 mM, not purified | Kd | 232 ± 29.7 nM
CAACTGAGACCATGTACCCAGTTCGAATCGGATGTATATATCTGACACGTGCCTGGAGACTAGGGAGTAATCCCCTTGGCGGTTAAAACGCGGGGGACAGCGCGTACGTGCGTTTAAGCGGTGCTAGAGCTGTCTACGACCAATTGAGCGGCCTCGGCACCGGGATTCTCGATAACTCAGCAATAGTGGGTCTCA / ACCATGAGACCCACTATTGCTGAGTTATCGAGAATCCCGGTGCCGAGGCCGCTCAATTGGTCGTAGACAGCTCTAGCACCGCTTAAACGCACGTACGCG / CTGTCCCCCGCGTTTTAACCGCCAAGGGGATTACTCCCTAGTCTCCAGGCACGTGTCAGATATATACATCCGATTCGAACTGGGTACATGGTCTCA (nucleosome DNA; nicked bottom strand, 5'-OH) | PARP1 full length assumed (Homo sapiens, UniProt P09874) | optical tweezers |  | single molecule, not purified, with: force 4 pN | Kd | 2.2 ± 0.3 nM
GGACAGGACCACACCCAGCGCGGTCGGCGGGTGGGCGGGGGGAGAACGAGGTAGGGGTCAGGCTCCTGTGTGTCGCTTTGT (ssDNA) | LDLR fragment (Homo sapiens) | flow cytometry | Huh-7 | in cells, tRNA competitor, not purified | Kd | 295 nM
GAGUUGAGUUGAGUUGAGUUGAGUUGAGUUGAGUUGAGUUGAGUUGAGUUGAGUU (ssRNA; single strand) | mtrB full length assumed T30L (Bacillus subtilis, UniProt P19466) | filter binding |  | with: L-tryptophan 1 mM | Kd | 158 ± 18 nM
GGGAGACCGGCCUCGA (ssRNA; 5' triphosphate, linear) | IFIT5 full length assumed (Homo sapiens, UniProt Q13325) | BLI |  | without Mg2+ | Kd | 42.7 nM
GCCUGAUGUGGUGGUGAAGGGUUGUUGGGUGUCGACGCACAGGC (L-RNA; terminal stem, six DNA residues) | C5a | SPR |  |  | Kd | 0.36 nM
TAGACGTCCTCGCATCAAGATGCTGCTGCCATCTTATATTTTCTATACAATAAGTATAGAAAATATAAGATGGCAGCAGCATCTTGATGCGAGGACGTC (dsDNA; hairpin, AATAA loop, 5' overhang 2-nt) | SPO11/TOP6BL (Mus musculus) | EMSA |  | without Mg2+ | Kd | 30.5 ± 2.63 nM
B1 (UGT1A9) | Cc1ccc(C(=O)c2cc(O)c(O)c([N+](=O)[O-])c2)cc1 | steady-state kinetics |  | pH 7.4, 37 °C | Vmax/Km | 417 µL/min/mg
GCUGAUGUGGUGGUGAAGGGUUGUUGGGUGUCGACGCACAGC (L-RNA; terminal stem, six DNA residues) | C5a | SPR |  |  | Kd | 0.3 nM

Repeated from above:
Molecule | target or system | assay | test system | conditions | measurement | value
GGACAGGACCACACCCAGCGCGGTCGGCGGGTGGGCGGGGGGAGAACGAGGTAGGGGTCAGGCTCCTGTGTGTCGCTTTGT (ssDNA) | LDLR fragment (Homo sapiens) | flow cytometry | Huh-7 | in cells, tRNA competitor, not purified | Kd | 295 nM
